Measurements gathered from unrelated publications.
Every numbered part comes from another study and shows a few of its results, in no order. Several values in a cell are separate wells, animals, samples, runs or records.
Chain of UniProt P18825 (whole entry, looked up): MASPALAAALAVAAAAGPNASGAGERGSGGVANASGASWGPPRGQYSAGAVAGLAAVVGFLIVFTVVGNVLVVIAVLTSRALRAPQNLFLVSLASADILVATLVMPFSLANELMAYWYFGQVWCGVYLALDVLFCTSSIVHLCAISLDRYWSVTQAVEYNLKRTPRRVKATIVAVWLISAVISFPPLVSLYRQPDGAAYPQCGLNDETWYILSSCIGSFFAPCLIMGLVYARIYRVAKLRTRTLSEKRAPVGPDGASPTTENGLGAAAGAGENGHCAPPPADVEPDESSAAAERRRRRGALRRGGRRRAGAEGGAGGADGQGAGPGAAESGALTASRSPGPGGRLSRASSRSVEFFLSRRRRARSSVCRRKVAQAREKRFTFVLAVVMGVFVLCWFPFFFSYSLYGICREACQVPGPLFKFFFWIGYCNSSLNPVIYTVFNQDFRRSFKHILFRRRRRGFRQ
Chain of UniProt P9WI81 (whole entry, looked up): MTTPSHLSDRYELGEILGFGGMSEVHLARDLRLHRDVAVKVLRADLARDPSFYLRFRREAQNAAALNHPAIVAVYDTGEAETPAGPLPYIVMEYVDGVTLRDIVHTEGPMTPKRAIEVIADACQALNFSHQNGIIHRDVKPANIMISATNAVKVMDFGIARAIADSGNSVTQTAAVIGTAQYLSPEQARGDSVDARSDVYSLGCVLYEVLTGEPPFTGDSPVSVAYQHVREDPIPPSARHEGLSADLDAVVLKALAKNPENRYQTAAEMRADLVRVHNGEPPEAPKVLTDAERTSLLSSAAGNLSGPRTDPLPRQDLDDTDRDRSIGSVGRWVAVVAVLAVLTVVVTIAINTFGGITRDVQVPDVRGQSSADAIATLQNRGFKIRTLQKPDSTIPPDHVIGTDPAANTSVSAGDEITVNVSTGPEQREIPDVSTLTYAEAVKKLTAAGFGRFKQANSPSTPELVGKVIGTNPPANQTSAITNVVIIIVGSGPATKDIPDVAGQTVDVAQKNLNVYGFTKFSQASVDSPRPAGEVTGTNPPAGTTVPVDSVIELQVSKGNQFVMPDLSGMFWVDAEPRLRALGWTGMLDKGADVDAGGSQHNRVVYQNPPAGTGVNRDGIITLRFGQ

Block 1
Cell line: HEK-293T/ACE2
Read-out: pseudovirus infection
Technique: counter-screen
Organism: VSV pseudotyped with VSV-G
Tested at: 10 µM
Time: 16 h
Reference: vehicle-treated
Measurement: GFP-positive cells
CC(=O)N(O)CCCCCNC(=O)CCC(=O)N(O)CCCCCNC(=O)CCC(=O)N(O)CCCCCN: 103%
CN(C)c1cc(NC(=O)CNC(C)(C)C)c(O)c2c1C[C@H]1C[C@H]3[C@H](N(C)C)C(O)=C(C(N)=O)C(=O)[C@@]3(O)C(O)=C1C2=O: 108%
C#C[C@]1(O)CC[C@H]2[C@@H]3CCC4=CC(=O)CC[C@@H]4[C@H]3CC[C@@]21C: 102%
CN(CCOc1ccc(CC2SC(=O)NC2=O)cc1)c1ccccn1 (centres unmarked): 85.5%
CC(C)c1ccc2oc3nc(N)c(C(=O)O)cc3c(=O)c2c1: 88.1%
Nc1nc2c(ncn2CCC(CO)CO)c(=O)[nH]1: 104%

Block 2
SMILES: CCOc1ccc(Nc2c3c(nc4ccccc24)CCC3)cc1
Organism: Leishmania donovani
Measurement: inhibition
THP-1 intracellular amastigotes, DD8 resistant line; 4 µM, resistance confirmation: 41%
parasite growth; 3.33 µM, promastigote: 23%
parasite growth; DD8 amphotericin B-resistant, intracellular amastigotes; 20 µM: 100% and 101%
parasite growth; DD8 amphotericin B-resistant, promastigotes; 0.66 µM: 17% and 14% and 12% and 15% and 18% and 11%
parasite growth; DD8 amphotericin B-resistant, promastigotes; 6.66 µM: 88% and 81% and 80% and 84% and 82%
parasite growth; DD8 amphotericin B-resistant, intracellular amastigotes; 0.08 µM: 1% and 12% and 14% and 2% and 9%
parasite growth; DD8 amphotericin B-resistant, promastigotes; 1.66 µM: 41% and 52% and 46% and 42%

Block 3
Cell line: HEK-293T-ACE2-TMPRSS2
Technique: cell count
Tested at: 10 µM
Measurement: viability
C=CCNC1=C2C[C@@H](C)C[C@H](OC)[C@H](O)[C@@H](C)/C=C(\C)[C@H](OC(N)=O)[C@@H](OC)/C=C\C=C(/C)C(=O)NC(=CC1=O)C2=O: 112%
CC1CN(S(=O)(=O)N2CC=C(c3c[nH]c4ncccc34)CC2)CC(C)O1 (centres unmarked): 105%
COC[C@@H]1CN(C(=O)c2ccc3ncccc3c2)C[C@H]1c1ccncc1: 112%
CCCN(CCC)C(=O)c1c[nH]c2ccc(S(=O)(=O)N(C)c3ccccc3OCC)cc2c1=O: 109%
Cc1cc(=O)[nH]c(CCNC(=O)[C@@H](O)c2ccccc2)n1: 65%
CCCCOc1ccc(Nc2cc(C)nc3ccc(OC)cc23)cc1: 74%

Further values, each from its own experiment
CRK2: Cyclin-dependent kinase 2 homolog (CRK2, Plasmodium falciparum, UniProt P61075)
Chain of UniProt P61075 (whole entry, looked up): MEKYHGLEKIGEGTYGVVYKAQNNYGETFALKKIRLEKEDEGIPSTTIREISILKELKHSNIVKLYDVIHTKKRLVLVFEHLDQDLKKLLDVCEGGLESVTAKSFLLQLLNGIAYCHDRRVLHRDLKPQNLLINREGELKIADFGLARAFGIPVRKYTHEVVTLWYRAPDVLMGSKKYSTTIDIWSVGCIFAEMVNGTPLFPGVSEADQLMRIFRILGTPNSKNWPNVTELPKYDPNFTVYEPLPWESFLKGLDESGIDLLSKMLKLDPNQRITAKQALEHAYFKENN
c1ccc(N2CCN(Cc3nc4ccccc4[nH]3)CC2)nc1  remaining binding (Serine/threonine-protein kinase PknB (pknB, Mycobacterium tuberculosis, UniProt P9WI81); cell-free assay, competition with immobilised ligand; 1 µM): 87%
CSc1cccnc1N1CCN(Cc2nc3ccccc3[nH]2)CC1  remaining binding (CRK2; cell-free assay, competition with immobilised ligand; 1 µM): 92%
Cc1c[nH]c2nccc(Oc3c(F)cc(Nc4cc(Cl)nc(N)n4)cc3F)c12  remaining binding (CRK2; cell-free assay, competition with immobilised ligand; 0.1 µM): 72%
Cc1c(N2CCNCC2)nc2ccc(Br)cc2c1C(=O)NC[C@H](CCC(=O)O)c1ccccc1Cl  inhibition (Alpha-2C adrenergic receptor (ADRA2C, Homo sapiens, UniProt P18825); ligand displacement; 10 µM): 5.7%

A few entries again (block 3):
CC1CN(S(=O)(=O)N2CC=C(c3c[nH]c4ncccc34)CC2)CC(C)O1 (centres unmarked): 105%
